Experimental data of several laboratories.
Each line is one published result; not all experiments were run side by side. ± gives the spread as reported.
SHF SH2 domain: SH2 domain-containing adapter protein F, SH2 domain (SHF, Homo sapiens, UniProt Q7M4L6)
UDP-3-O-acyl-N-acetylglucosamine deacetylase C40S: UDP-3-O-acyl-N-acetylglucosamine deacetylase (Pseudomonas aeruginosa, UniProt P47205, C40S)

SMILES	target	assay	test system	conditions	Kd
CSCC[C@H](NC(=O)CNC(=O)[C@H](Cc1ccccc1)NC(=O)[C@H](CC(=O)O)NC(=O)CNC(=O)c1ccc2c(c1)C(=O)OC21c2ccc(N(C)C)cc2Oc2cc(N(C)C)ccc21)C(=O)N[C@@H](CO)C(=O)N[C@@H](CCCNC(=N)N)C(=O)N[C@@H](CC(=O)O)C(=O)N[C@H](C(=O)N[C@@H](Cc1ccc(OP(=O)(O)O)cc1)C(=O)N[C@@H](CO)C(=O)N[C@H](C(=O)N[C@@H](CC(=O)O)C(=O)N[C@@H](Cc1ccc(O)cc1)C(=O)N[C@@H](Cc1ccc(O)cc1)C(=O)N[C@@H](CCCNC(=N)N)C(=O)N[C@H](C(=O)N[C@@H](CC(=O)O)C(=O)O)C(C)C)[C@@H](C)O)C(C)C	TNS2, SH2 domain (Homo sapiens, UniProt Q63HR2)	binding	–	–	1.67 µM
C[S+](CC[C@H](N)C(=O)O)C[C@H]1O[C@@H](n2cnc3c(N)ncnc32)[C@H](O)[C@@H]1O (some centres unmarked)	kamB (Streptoalloteichus tenebrarius, UniProt P25920)	–	–	–	~80 µM
O=C(O)CCCN1CC=C(c2ccccc2)CC1	Ubiquitin carboxyl-terminal hydrolase 3, ZnF-UBD domain (USP3, Homo sapiens, UniProt Q9Y6I4)	–	–	–	> 1000 µM
CC[C@H](C)[C@H](NC(=O)[C@H](N)Cc1ccc(O)cc1)C(=O)N[C@H](C(=O)N[C@@H](CC(=O)O)C(=O)N[C@H](C(=O)N1CCC[C@H]1C(=O)N[C@@H](CC(C)C)C(=O)NCC(=O)N[C@H](C(=O)N[C@@H](Cc1ccccc1)C(=O)N[C@@H](CC(C)C)C(=O)N[C@@H](CO)C(=O)N[C@@H](CO)C(=O)N[C@@H](CC(C)C)C(=O)N[C@@H](CCCCN)C(=O)N[C@@H](CCCNC(=N)N)C(=O)N[C@@H](CS)C(=O)O)C(C)C)[C@@H](C)O)[C@@H](C)CC	VPS26A/VPS35/VPS29 (Homo sapiens, UniProt O75436+Q96QK1+Q9UBQ0)	binding	–	–	0.763 ± 0.055 µM
CC(C)C[C@H](NC(=O)[C@@H](NC(=O)[C@H](CO)NC(=O)[C@H](CO)NC(=O)[C@@H](NC(=O)[C@H](CC(=O)O)NC(=O)[C@H](CC(C)C)NC(=O)[C@@H]1CCCN1C(=O)[C@H](CO)NC(=O)c1ccc2c(c1)C(=O)OC21c2ccc(N(C)C)cc2Oc2cc(N(C)C)ccc21)[C@@H](C)O)C(C)C)C(=O)N[C@@H](Cc1ccc(OP(=O)(O)O)cc1)C(=O)N[C@H](C(=O)N[C@@H](C)C(=O)N[C@H](C(=O)N[C@@H](CCC(N)=O)C(=O)N1CCC[C@H]1C(=O)N[C@@H](CC(N)=O)C(=O)N[C@@H](CCC(=O)O)C(=O)N[C@@H](CC(=O)O)C(=O)O)C(C)C)[C@@H](C)O	SHF SH2 domain	binding	–	–	1.63 µM
CCC1COC(Cn2cncn2)(c2ccc(Cl)cc2Cl)O1 (centres unmarked)	Cytochrome P450 2A6 (CYP2A6, Homo sapiens, UniProt P11509)	binding	–	20 min, pH 7.4, purified protein, 2% DMSO	19.2 µM
c1cc2c3c(cccc3c1)NC1(CCC3(CC1)Nc1cccc4cccc(c14)N3)N2	Histidine protein kinase SaeS (saeS, Staphylococcus aureus, UniProt Q840P7)	binding	–	–	~10 µM
CC[C@@H](C)[C@@H](NC(=O)[C@@H](Cc1ccc(O)cc1)NC(=O)[C@H]1CCCN1C(=O)[C@@H](CCCNC(=N)N)NC(=O)[C@H](N)Cc1c[nH]cn1)C(=O)N[C@H](C)C(=O)N[C@H](Cc1c[nH]cn1)C(=O)N[C@H](CCCNC(=N)N)C(=O)N[C@@H](C(=O)N[C@H](Cc1ccc(O)cc1)C(=O)N[C@H](CO)C(=O)N[C@H](Cc1ccccc1)C(N)=O)C(C)C	CD274 (Homo sapiens, UniProt Q9NZQ7)	microscale thermophoresis	–	6 h, His-tagged protein	5.8 ± 1 µM
Cc1cccc(C)c1NC(=O)[C@@H]1CCCCN1C	Sodium channel protein type 4 alpha, BTX-activated (Oryctolagus cuniculus, UniProt G1SLL9)	binding	–	–	1200 µM
CC1(CNC(=O)c2ccc(-c3ccc(Br)cc3)cc2)NC(=O)NC1=O (centres unmarked)	UDP-3-O-acyl-N-acetylglucosamine deacetylase C40S	binding	–	–	> 100 µM
CC[C@H](C)[C@H](NC(=O)c1ccc2c(c1)C(=O)OC21c2ccc(N(C)C)cc2Oc2cc(N(C)C)ccc21)C(=O)N[C@@H](Cc1ccccc1)C(=O)N[C@@H](CO)C(=O)N[C@H](C(=O)N[C@@H](Cc1ccccc1)C(=O)N[C@H](C(=O)NCC(=O)N[C@@H](CCC(=O)O)C(=O)N[C@@H](Cc1c[nH]cn1)C(=O)N[C@@H](Cc1ccc(OP(=O)(O)O)cc1)C(=O)N[C@H](C(=O)N[C@@H](Cc1c[nH]cn1)C(=O)N[C@H](C(=O)N[C@@H](CC(N)=O)C(=O)N[C@@H](C)C(=O)N[C@H](C(=O)N[C@@H](Cc1ccc(O)cc1)C(=O)N[C@@H](CC(=O)O)C(=O)O)[C@@H](C)O)C(C)C)C(C)C)[C@@H](C)CC)[C@@H](C)O	Proto-oncogene tyrosine-protein kinase Src, SH2 domain (SRC, Homo sapiens, UniProt P12931)	binding	–	–	0.201 µM
CC1(CNC(=O)[C@H](CN)NC(=O)c2ccc(C#Cc3ccccc3)cc2)NC(=O)NC1=O (some centres unmarked)	UDP-3-O-acyl-N-acetylglucosamine deacetylase C40S	binding	–	–	> 100 µM
N[C@@H](Cc1ccc(O)c(I)c1)C(=O)O	Iodotyrosine deiodinase (Haliscomenobacter hydrossis, UniProt F4KU78, R38K)	binding	–	–	133 ± 10 µM
Oc1ccc(Br)cc1OC(F)(F)F	Iodotyrosine deiodinase (Haliscomenobacter hydrossis, UniProt F4KU78, Q108C)	binding	–	–	40 ± 4 µM
CC[C@H](C)[C@H](NC(=O)[C@H](CC(N)=O)NC(=O)[C@H](CCCCN)NC(=O)[C@H](CC(C)C)NC(=O)[C@@H](NC(=O)[C@H](CCCCN)NC(=O)[C@H](CO)NC(=O)[C@H](CC(C)C)NC(=O)[C@H](CO)NC(=O)[C@@H](NC(=O)[C@@H](NC(=O)[C@@H](NC(=O)[C@H](CC(=O)O)NC(=O)[C@H](CCCCN)NC(=O)[C@H](C)NC(=O)[C@H](C)NC(=O)[C@H](CCCCN)NC(=O)[C@H](Cc1ccc(O)cc1)NC(=O)[C@@H](NC(=O)[C@@H](N)CC(N)=O)[C@@H](C)CC)C(C)C)[C@@H](C)O)[C@@H](C)O)C(C)C)C(=O)N[C@@H](CC(N)=O)C(=O)N[C@@H](CCCCN)C(=O)O	Vinculin, Vd1 head domain (VCL, Homo sapiens, UniProt P18206)	binding, isothermal titration calorimetry	–	25 °C, Vd1 domain	0.0049 ± 0.0009 µM
Nc1nc2c(ncn2[C@@H]2O[C@@H]3COP(=O)(O)O[C@H]4[C@@H](O)[C@H](n5cnc6c(=O)[nH]c(N)nc65)O[C@@H]4COP(=O)(O)O[C@H]3[C@H]2O)c(=O)[nH]1	Cell cycle histidine kinase CckA, cytoplasmic region (Caulobacter vibrioides, UniProt Q9X688)	isothermal titration calorimetry	Caulobacter crescentus	12 °C, with: AMPPNP 5 mM	no binding
C[C@@H](O)[C@H](NC(=O)c1ccc(C#Cc2ccccc2)cc1)C(=O)NCC1(C)NC(=O)NC1=O (some centres unmarked)	UDP-3-O-acyl-N-acetylglucosamine deacetylase C40S	binding	–	–	> 100 µM
CC[C@H](C)[C@H](NC(=O)[C@H](CC(=O)O)NC(=O)[C@H](C)NC(=O)[C@H](Cc1ccc(O)cc1)NC(=O)[C@H](CCCCN)NC(=O)c1ccc2c(c1)C(=O)OC21c2ccc(N(C)C)cc2Oc2cc(N(C)C)ccc21)C(=O)N[C@@H](CCC(=O)O)C(=O)N[C@@H](CO)C(=O)N[C@@H](CO)C(=O)N[C@@H](CC(N)=O)C(=O)N[C@@H](Cc1ccc(OP(=O)(O)O)cc1)C(=O)N[C@@H](CCSC)C(=O)N[C@@H](C)C(=O)N1CCC[C@H]1C(=O)N[C@@H](Cc1ccc(O)cc1)C(=O)N[C@@H](CC(=O)O)C(=O)N[C@@H](CC(N)=O)C(=O)N[C@@H](Cc1ccc(O)cc1)C(=O)N[C@@H](CC(=O)O)C(=O)O	SHF SH2 domain	binding	–	–	0.733 µM
CO[C@H]1/C=C\C=C(/C)C(=O)NC2=CC(=O)C(NCCCCCCNC(=S)Nc3ccc(-c4c5ccc(=O)cc-5oc5cc(O)ccc45)c(C(=O)O)c3)=C(C[C@@H](C)C[C@H](OC)[C@H](O)[C@@H](C)/C=C(\C)[C@@H]1OC(N)=O)C2=O	Heat shock protein 90 homolog (Candida albicans, UniProt P46598)	binding, fluorescence polarization	–	with: geldanamycin-FITC probe	0.0023 µM
c1cncc([C@@H]2CCCCN2)c1	Chrnd/Chrna1/Chrne (Mus musculus, UniProt P02716+P04756+P20782, G173K/S470W)	resting state binding, agonist, single-channel kinetics	–	–	2.2 µM
CC[C@H](CO)Nc1nc(NCc2ccc(-c3ccccn3)cc2)c2ncn(C(C)C)c2n1	RPS6KA3 (Homo sapiens, UniProt P51812)	binding, competition affinity chromatography	SH-SY5Y cell extract	–	27.1 µM
CCCCCCCC(=O)OC[C@H](COP(=O)(O)O[C@@H]1[C@H](O)[C@H](OP(=O)(O)O)[C@@H](O)[C@H](O)[C@H]1O)OC(=O)CCCCCCC	PP2C family protein phosphatase (Vibrio splendidus, UniProt A0ABV4LX41, N139A)	–	–	–	0.75 ± 0.193 µM
C[N+](C)(C)C	Chrnd/Chrna1/Chrne (Mus musculus, UniProt P02716+P04756+P20782, G173A/S470W)	single-channel kinetics	–	A chain side site	39 µM
CC1(CNC(=O)[C@H](CN)NC(=O)c2ccc(-c3ccccc3)cc2)NC(=O)NC1=O (some centres unmarked)	UDP-3-O-acyl-N-acetylglucosamine deacetylase C40S	binding	–	–	> 100 µM
CC(=O)N[C@@H](CC(N)=O)C(=O)N[C@@H](CC(C)C)C(=O)NCC(=O)N[C@@H](CCCCN)C(=O)N[C@@H](Cc1c[nH]cn1)C(=O)N[C@@H](CCC(=O)O)C(=O)N[C@@H](CCCCN)C(=O)N[C@@H](Cc1ccccc1)C(=O)N[C@@H](CO)C(=O)N[C@@H](CCC(=O)O)C(=O)N[C@H](C(=O)N[C@@H](CC(C)C)C(=O)N[C@@H](CCCCN)C(=O)N[C@@H](CCCNC(=N)N)C(=O)N[C@@H](CC(C)C)C(=O)N[C@@H](CCCNC(=N)N)C(=O)N[C@@H](CC(C)C)C(=O)N[C@@H](CCC(N)=O)C(N)=O)C(C)C	Calmodulin-1, N-lobe fragment (CALM1, Homo sapiens, UniProt P0DP23)	ITC	–	N-lobe, with: 1 mM CaCl2	1.96 µM
CC[C@H](C)[C@H](NC(=O)[C@@H](NC(=O)[C@@H](NC(=O)[C@H](Cc1ccccc1)NC(=O)[C@H](C)NC(=O)[C@H](CCCNC(=N)N)NC(=O)CNC(=O)[C@@H]1CCCN1C(=O)CN)C(C)C)[C@@H](C)O)C(=O)O	H-2 class I histocompatibility antigen, D-D alpha chain, 18 (H2-D1, Mus musculus, UniProt P01900)	thermodynamic cycle calculation	–	–	~130 µM

For quick reference, copied from above:
SMILES	target	assay	test system	conditions	Kd
O=C(O)CCCN1CC=C(c2ccccc2)CC1	Ubiquitin carboxyl-terminal hydrolase 3, ZnF-UBD domain (USP3, Homo sapiens, UniProt Q9Y6I4)	–	–	–	> 1000 µM
CC[C@H](C)[C@H](NC(=O)[C@H](N)Cc1ccc(O)cc1)C(=O)N[C@H](C(=O)N[C@@H](CC(=O)O)C(=O)N[C@H](C(=O)N1CCC[C@H]1C(=O)N[C@@H](CC(C)C)C(=O)NCC(=O)N[C@H](C(=O)N[C@@H](Cc1ccccc1)C(=O)N[C@@H](CC(C)C)C(=O)N[C@@H](CO)C(=O)N[C@@H](CO)C(=O)N[C@@H](CC(C)C)C(=O)N[C@@H](CCCCN)C(=O)N[C@@H](CCCNC(=N)N)C(=O)N[C@@H](CS)C(=O)O)C(C)C)[C@@H](C)O)[C@@H](C)CC	VPS26A/VPS35/VPS29 (Homo sapiens, UniProt O75436+Q96QK1+Q9UBQ0)	binding	–	–	0.763 ± 0.055 µM
CC(C)C[C@H](NC(=O)[C@@H](NC(=O)[C@H](CO)NC(=O)[C@H](CO)NC(=O)[C@@H](NC(=O)[C@H](CC(=O)O)NC(=O)[C@H](CC(C)C)NC(=O)[C@@H]1CCCN1C(=O)[C@H](CO)NC(=O)c1ccc2c(c1)C(=O)OC21c2ccc(N(C)C)cc2Oc2cc(N(C)C)ccc21)[C@@H](C)O)C(C)C)C(=O)N[C@@H](Cc1ccc(OP(=O)(O)O)cc1)C(=O)N[C@H](C(=O)N[C@@H](C)C(=O)N[C@H](C(=O)N[C@@H](CCC(N)=O)C(=O)N1CCC[C@H]1C(=O)N[C@@H](CC(N)=O)C(=O)N[C@@H](CCC(=O)O)C(=O)N[C@@H](CC(=O)O)C(=O)O)C(C)C)[C@@H](C)O	SHF SH2 domain	binding	–	–	1.63 µM
